Measured values from different studies.
Parts stem from different laboratories: compare values within a part only. “And” joins repeats or separate records; there may be more than shown. ± marks the error that the study gave. In brackets after ≈: the same amount, converted by molar mass.

Block 1
Target: Replicase polyprotein 1ab, nsp12 with nsp7/nsp8 (rep, Severe acute respiratory syndrome coronavirus 2, UniProt P0DTD1)
Observed: enzyme activity
Tested at: 20 µM
Compound | inhibition
Cc1cn([C@H]2C[C@H](N=[N+]=[N-])[C@@H](CO)O2)c(=O)[nH]c1=O | -7.94%
CCN(CCO)CCCC(C)Nc1ccnc2cc(Cl)ccc12 (stereo not shown) | 1.79%
COc1ccc2c(c1)c(CC(=O)O)c(C)n2C(=O)c1ccc(Cl)cc1 | 18.2%
CC(C)(C)NC(=O)N[C@H](C(=O)N1C[C@H]2[C@@H]([C@H]1C(=O)NC(CC1CCC1)C(=O)C(N)=O)C2(C)C)C(C)(C)C (stereo partly shown) | 1.98%
CCCCCCNC(=O)n1cc(F)c(=O)[nH]c1=O | -13.8%
CC(C)NCC(O)COc1cccc2[nH]ccc12 (stereo not shown) | 19.5%
COc1cc(CNC(=O)CCCC/C=C/C(C)C)ccc1O | 16.3%
Nc1ccncc1 | 34.3%
O=C(NN1C(=O)[C@@H]2[C@@H]3C=C[C@@H]([C@H]4C[C@@H]34)[C@@H]2C1=O)c1ccc(C(F)(F)F)cc1 | -5.19%
C[C@H]1C[C@H]2[C@@H]3CCC4=CC(=O)C=C[C@]4(C)[C@@]3(F)[C@@H](O)C[C@]2(C)[C@@]1(O)C(=O)CO | -1.78%
O=c1c(O)c(-c2ccc(O)cc2O)oc2cc(O)cc(O)c12 | 104%
Nc1ncnc2c1ncn2[C@@H]1O[C@H](COP(=O)(O)OP(=O)(O)OP(=O)(O)O)[C@@H](O)[C@H]1O | -6.47%
CC(=O)[C@@]1(O)CC[C@H]2[C@@H]3C[C@H](C)C4=CC(=O)C=C[C@]4(C)[C@@]3(F)[C@@H](O)C[C@@]21C | 22.7%
Cc1nnc(C(=O)NC(C)(C)c2nc(C(=O)NCc3ccc(F)cc3)c(O)c(=O)n2C)o1 | -3.11%
Cc1cc(C(C#N)c2ccc(Cl)cc2)c(Cl)cc1NC(=O)c1cc(I)cc(I)c1O (stereo not shown) | 56.1%
CCN(CC)C(C)C(=O)c1ccccc1 (stereo not shown) | -5.99%
CCOC(=O)C1=C[C@@H](OC(CC)CC)[C@H](NC(C)=O)[C@@H](N)C1 | 35%
CC(C)[C@]12O[C@H]1[C@@H]1O[C@]13[C@]1(O[C@H]1C[C@H]1C4=C(CC[C@@]13C)C(=O)OC4)[C@@H]2O | 0.34%
CC(C)c1ccccc1Cc1cc(C(=O)Nc2ccc(S(=O)(=O)c3ccccc3C(C)(C)C)cc2)c(O)c(O)c1O | 90.8%
N#C/C(=C\c1ccc(O)c(O)c1)C(=O)OCCc1cccs1 | 104%
O=C(O)c1ccccc1Nc1ccc(CCc2ccc(Cl)c(Cl)c2)cc1 | 64.9%
CCCC[C@@H](C=O)NC(=O)[C@H](CC(C)C)NC(=O)OCc1ccccc1 | -2.11%
CC(C)COCC(CN(Cc1ccccc1)c1ccccc1)N1CCCC1 (stereo not shown) | -1.86%

Block 2
Target: Replicase polyprotein 1ab, main protease (rep, Severe acute respiratory syndrome coronavirus 2, UniProt P0DTD1)
Observed: enzyme activity
Action: inhibitor
Tested at: 20 µM
Setting: primary screen
SMILES | inhibition
CN1CCN(CCCCN2C(=O)CN(/N=C/c3ccc(-c4ccc(Cl)cc4)o3)C2=O)CC1 | 55.2%
CC(C)Nc1cccnc1N1CCN(C(=O)c2cc3cc(NS(C)(=O)=O)ccc3[nH]2)CC1 | 82%
N#Cc1c(O)c2c(-c3ccc(-c4ccccc4O)cc3)csc2[nH]c1=O | 54%

Block 3
Cell line: HEK-293T/ACE2
Tested at: concentration not given
Time: 16 (unit not given)
Baseline: vehicle
Structure (SMILES) | viability [%]
CN1CCC(=C2c3ccccc3CCn3c(C=O)cnc32)CC1 | 105
CCCN(CCC)S(=O)(=O)c1ccc(C(=O)O)cc1 | 98
CC(=O)Nc1cccc(-n2c(=O)n(C3CC3)c(=O)c3c(Nc4ccc(I)cc4F)n(C)c(=O)c(C)c32)c1 | 99.8

Mixed results
Compound | tested on | test | test system | conditions | scale | endpoint | result
CN(N=O)c1ccc(O)c(O)c1 | Gag-Pol polyprotein, integrase (gag-pol, Human immunodeficiency virus type 1 group M subtype B, UniProt P04585) | enzyme activity, inhibitor |  |  |  | IC50 | > 25 µM
COc1ccc(C[C@@H]2c3cc(Oc4cc(C[C@@H]5c6cc(O)c(OC)cc6CCN5C)ccc4O)c(OC)cc3CCN2C)cc1 | SARS-CoV-2 | viral replication | Vero E6 | 3.125 µM |  | CPE inhibition | 0%
CC[C@H](C)[C@H](NC(=O)[C@@H](NC(=O)[C@@H](N)Cc1ccccc1)[C@@H](C)O)C(=O)N[C@@H](CC(=O)O)C(=O)N[C@@H](Cc1ccccc1)C(=O)N[C@@H](CCCCN)C(=O)N[C@@H](CC(C)C)C(=O)N[C@@H](CCCCN)C(=O)N[C@@H](Cc1ccc(O)cc1)C(=O)O | HLA class I histocompatibility antigen, A alpha chain, allele A*29:02 (Homo sapiens, UniProt P04439) | biochemical |  |  |  | IC50 | 0.0014 µM
Cn1c(=O)ccc2ccc(F)c(CCNC[C@H]3CN(c4cnc5c(n4)NC(=O)CO5)C(=O)O3)c21 | Burkholderia pseudomallei |  |  |  |  | MIC90 | 0.5 µg/mL (≈ 1.07 µM)
COc1cc(C2C(C#N)=C(N)Oc3c2c(C)nn3-c2ccc(Cl)cc2)cc(OC)c1OC (stereo not shown) | SARS-CoV-2 |  | Vero C1008 | 1 µM | baseline: positive control | viral titre log reduction | 0.145 log10
Cc1cccc(CN2CCN(C(c3ccccc3)c3ccc(Cl)cc3)CC2)c1 (stereo not shown) | Ebola virus Zaire | pseudovirus entry | A549 |  | baseline: CC50 over IC50 | selectivity index | 9
Cc1ccc2c(NC(C)c3ccccc3)nc(N3CCNCC3)nc2c1 (stereo not shown) | SARS-CoV-2 | cytopathic effect | USA_WA1/2020 | retest 8-point |  | efficacy | 89.3%
Cc1cn([C@H]2C=C[C@@H](COP(=O)(O)OP(=O)(O)OP(=O)(O)O)O2)c(=O)[nH]c1=O | Gag-Pol polyprotein, reverse transcriptase (gag-pol, Human immunodeficiency virus type 1 group M subtype B, UniProt P04585, K653R) | inhibitor | HIV-1 |  |  | IC50 | 4.87 ± 1.23 µM
Cc1nn(-c2ccc(Cl)cc2)c2c1C(c1c(Cl)cccc1Cl)C(C#N)=C(N)O2 (stereo not shown) | SARS-CoV-2 |  | Vero C1008 | 1 µM | baseline: positive control | viral titre log reduction | 0.0237 log10
O=c1sn(-c2cccc3ccccc23)c(=O)n1Cc1ccccc1 | Enterovirus A71 2A protease | enzyme activity, FRET |  |  |  | IC50 | > 60 µM
CNC(=O)[C@@H](NC(=O)[C@H](CC(C)C)[C@H](O)C(=O)NO)C(C)(C)C | Daboia russelii venom proteases | proteolytic activity, inhibitor |  | venom from MH, with: azocasein substrate |  | IC50 | 0.15 µM
COC(=O)c1ccc(COc2ccccc2NC(=O)c2ccccc2OC)cc1 | HIV-1 | viral replication, refers to: RT activity | H9 expressing A3G, LAI, X4-tropic wild type | day 7 |  | IC50 | > 100 µM
CCc1c(C(=O)C(N)=O)c2c(OCC(=O)O)cccc2n1Cc1ccccc1 | Daboia russelii venom phospholipase A2 | enzyme activity, inhibitor | KL population | 0.001 µM, with: NOB substrate | baseline: venom alone | remaining activity | 90.8% and 88.2% and 90.7%
O=C(/C=C/c1ccc(O)c(O)c1/C=C/c1ccc(O)c(O)c1)O[C@H](Cc1ccc(O)c(O)c1)C(=O)O | SARS-CoV-2 | cytopathic effect | Vero E6 | 50 µM, first run |  | inhibition | 0%
COc1ccc(Oc2ccccc2NC(=O)c2ccccc2OC)cc1 | HIV-1 | viral replication, refers to: RT activity | H9 expressing A3G, LAI, X4-tropic wild type | day 7 |  | IC50 | 9.7 µM
CCCN1CCN(CCCNC(=O)c2cc3c(Cl)nc4ccccc4c3s2)CC1 | SARS-CoV-2 | cytopathic effect, cell-based CPE | USA_WA1/2020 | round 2, 5-point dilution |  | maximal response | 78.9%
CC(Cc1cccnc1)Nc1nccc(-c2cnn(-c3ccccc3F)c2)n1 (stereo not shown) | Lassa mammarenavirus | viral replication | Huh-7 | 10 µM, 72 h |  | remaining activity | 40%
